Measured values pooled from the literature.
Each numbered part is a random draw from the data of one study; scales do not carry over between parts.

Set 1
Target: Histone acetyltransferase KAT6A, winged helix 1, GST fusion (KAT6A, Homo sapiens, UniProt Q92794, residues 1-85)
Technique: protein binding microarray
Molecule type: double-stranded DNA, one strand shown
Medium: in vitro
Concentration: not given
Setting: 8-mer, flanks averaged, mean of 2 arrays, mostly near background
Relative to: not given
Direction: higher = stronger binding
Target sequence (chain): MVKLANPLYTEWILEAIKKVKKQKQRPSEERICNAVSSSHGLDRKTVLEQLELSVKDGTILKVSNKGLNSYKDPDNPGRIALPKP
Oligonucleotide | E-score
CTGTGAAA | -0.0633
TGCATAAA | -0.208
AATACATG | -0.0786
ATCGACAC | -0.0732
CGCTTCAG | 0.0115
TCTGGCAA | -0.291
GATCCTTA | -0.278
GACTGTGA | -0.214
GGGCGGAA | 0.0633
AATTACCT | -0.101
CACACCAG | -0.221
GAGGGTCA | -0.0619
CGTCAAGC | 0.0361
AACCAAGA | -0.289
GGCACAAA | 0.075
GGTTTCGA | 0.178

Set 2
Target: Prothrombin, mature alpha-thrombin (F2, Homo sapiens, UniProt P00734)
Technique: aptamer microarray, sandwich
Molecule type: DNA with 2'F-ANA
Medium: in vitro
Concentration: 200 nM
Setting: whole 15-mer aptamer, many near background
Together with: Cy3 exosite-II aptamer, 400 nM
Direction: higher = stronger binding
Oligonucleotide: GGTTGGTGTGGTTGG
Modification | mean fluorescence intensity
2'F-ANA at 3 4 5 7 8 11 14 15 | 64.6 a.u.
2'F-ANA at 3 5 6 8 12 13 14 | 98.6 a.u.
2'F-ANA at 1 3 5 13 15 | 52.4 a.u.
2'F-ANA at 1 2 3 6 7 9 12 14 | 75.6 a.u.
2'F-ANA at 2 3 6 7 | 832 a.u.
2'F-ANA at 1 2 3 5 8 9 10 12 13 14 15 | 65.3 a.u.
2'F-ANA at 2 5 6 8 10 11 12 14 15 | 49.9 a.u.
2'F-ANA at 1 5 6 8 9 11 13 15 | 49.6 a.u.
2'F-ANA at 1 4 6 7 8 9 11 12 14 15 | 81.3 a.u.
2'F-ANA at 2 4 5 6 8 9 10 12 13 14 | 48.2 a.u.
2'F-ANA at 1 6 9 11 13 14 | 55.3 a.u.
2'F-ANA at 2 4 7 8 9 10 11 | 108 a.u.
2'F-ANA at 1 3 6 7 8 10 12 13 14 15 | 66 a.u.

Set 3
Target: RING finger protein unkempt homolog, zinc fingers 1-6, SBP tag (UNK, Homo sapiens, UniProt Q9C0B0, residues 30-357)
Sequence of UniProt Q9C0B0 (30-357, looked up): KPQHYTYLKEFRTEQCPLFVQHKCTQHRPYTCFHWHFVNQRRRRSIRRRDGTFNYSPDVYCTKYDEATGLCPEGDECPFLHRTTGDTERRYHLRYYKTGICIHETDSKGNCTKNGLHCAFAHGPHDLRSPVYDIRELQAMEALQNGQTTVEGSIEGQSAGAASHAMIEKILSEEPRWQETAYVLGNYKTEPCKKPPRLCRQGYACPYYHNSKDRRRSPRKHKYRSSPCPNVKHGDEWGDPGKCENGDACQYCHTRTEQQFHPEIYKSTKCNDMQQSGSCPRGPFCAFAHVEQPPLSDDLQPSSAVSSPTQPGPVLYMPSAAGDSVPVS
Technique: RNA Bind-n-Seq
Molecule type: RNA
Medium: in vitro
Concentration: 100 nM
Setting: RNA with constant flanks, vertebrate orthologous sites, ends assumed
Relative to: input RNA pool
Direction: higher = stronger binding
Constant ends, left off below: GGGAGUUCUACAGUCCGACGAUC … CAACAGAGGAUUGAGCAUCA
Oligonucleotide | bound/input enrichment [ratio]
GUGUUGGUGCAGAGUGUCCUGUACCAGUGCUCAUCAUCCCUUCUUCAUACCAACUGUCCCUAGUUAUAGGAAUUUAAUAUUUUUAAAAAUUUUACAUUGCUGUAUAUUCAAAGAUUUGUU | 0.905
ACACUUAUAUUGUGGCAUAUAGUCAACAUGGAAGUAGACCAGCUCUGCUGAUUUGAAAUUUAGAUUUUUUAAUUAUGUACUGGGGACAGGUUUUUGUCGCUUUACAUUGCUUCCUAGUUU | 3.14
AUCUUCAACUUGUUCUAGCUUGUGAUCCUUCAAGUUGGGUCAUGCAUUAGUGCUAGAUACUAGAAAUUGUCAUUUCUCUUUCCACUGAGUAAGAGACAGACAUUAAAAACAAAUGUUCAG | 0.388
GUUAGGCCAUGACCCUUACAGGCUAGGUCAUGAUGCCUACAGGUUAGGGCAAGACCCCUAUAGAUUAGGGCAUGACCCCUACAGACUAACUCCUGAUCCCUAUAGGAUGUCACCUAGACC | 0.434
AUAGGAGCAGCAUAGGCUGUUUGAGCUUUGGGGUAAUGAGCUUUGCUUUUUAUAUUUAAAUAGGAUACUUUUAUAUGAUGGGUGCUUUGAGUGUGAAUGCAGCAGGCUGUCCAUUUCAGA | 1.58
AUCCCUCAGUGACAGUAUGCCAUCUGUAGCAGAUUCUCACUCUAGUCAUUUUUCUGAAUUUAGUUGUUCUGACCUAGAAAGCAUGAAAACGUCUUGUAGUCAUGGUUCCAGUGAUUAUCA | 1.82
CUCCUCUUAAUCCCAUCUCAUCUGUUUCAUAGUGCUGAAGCUCUGUCUUCAGCCUUAUUUUUAGCGAACUUAUUCUAAUUAUAGAGAAACUUCCAGUGUGGAUACUGUGAGCUAUAUGGA | 1.77
GGCUCCUCCCCUGGGCCCAUGCUGCCCUCCUGUGCCCUGCCGGGCCUCGAGGACCUGCGUUUCAAACAUUUUGUAACCUGCUGUCCAAGGGGAGGUGUGUCUGGAGUGCAUCUCGGAGCC | 0.269
UGGGUUACUCCUAUUACUAUCAAGUAGCUGGAAUUGUGAAGGUCGGAGUAGUUAGCUCUUUAGCUUUUCUUCCUUAUUUUUUGUAUUCCUCUCAUGUGUAUAAAUUAUUGAUCAUGUUGC | 1.36
ACGUAUUUAUACUGGCCAAACAUUUUUGACUUUGUAUUUCUUUGUCCUUUUUUGGUAGUUCUCGUUGUUACCCGCACCAUUUUUAUGUCUCCUUCACUGAAGGGCUAGAGUUUUAACUUU | 0.551
UCUAUACAGUUUCAAAGAUACUUCCUUAUAGAGUGCUUUGGCGCUUCACAUAUUUAAUCGUAUUUACAUAUCUAUUUUUUAUAAAUAGCAGUAUAAGUUUAAAGGGGACUCACUUGGUGU | 0.684

Further values, each from its own experiment
Substance | target | test | test system | setting | scale | quantity | result
PhoQ, residues 284 288 289 292 302 303 DDMDFR | PhoP, residues 12 14 15 18 19 NYFTV (Escherichia coli, UniProt P23836) | Sort-seq, measured: YFP reporter | E. coli | PhoQ-PhoP variant library, together with: 10 µM Mg2+ | relative to: high Mg2+ state, higher = stronger signaling | fold induction | 0.573

Excerpt of the above (set 1):
Oligonucleotide | E-score
GAGGGTCA | -0.0619
TGCATAAA | -0.208
CGTCAAGC | 0.0361
ATCGACAC | -0.0732
AATACATG | -0.0786
